Measured values of several laboratories.
Each numbered part is a random draw from the data of one study; scales do not carry over between parts.

Study 1 — technique: competition protein-binding microarray; molecule type: double-stranded DNA, one strand shown; medium: in vitro; tested at: 2 µM; added: Cbf1 competitor, 0.05 µM; reading: higher = stronger binding; quantity: fluorescence intensity; shared flanks, not repeated: … GTCTTGATTCGCTTGACGCTGCTG
Target: Phosphate system positive regulatory protein PHO4, full length, GST-tagged (PHO4, Saccharomyces cerevisiae, UniProt P07270, residues 1-312)
Notes: whole 60-bp probe, lowest competitor level
Target sequence (chain): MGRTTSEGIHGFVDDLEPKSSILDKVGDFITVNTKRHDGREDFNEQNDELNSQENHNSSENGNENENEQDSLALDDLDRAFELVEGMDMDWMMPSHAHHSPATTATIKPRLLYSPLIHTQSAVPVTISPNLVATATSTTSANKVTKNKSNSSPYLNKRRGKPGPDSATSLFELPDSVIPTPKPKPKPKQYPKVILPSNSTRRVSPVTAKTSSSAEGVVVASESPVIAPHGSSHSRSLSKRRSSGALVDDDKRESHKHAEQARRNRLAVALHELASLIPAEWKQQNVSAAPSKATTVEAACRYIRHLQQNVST
GTCTTGTCTCATTGTGATGTGGGTGTCCCCACTTCA: 5390 a.u.
TGTATTGATTTTTAGAACGTGAAAAGGATAAACTGA: 8210 a.u.
TCTTTGTCTGCTCGAGACGTGGGTAGTTAGCAAGTC: 7380 a.u.
CAGAACTAGATGGCGCTCGTGATTGTGAAAACGGGG: 6660 a.u.
TTGAAAGCTGGTACGACCGTGATGGGCGGCGGTGTT: 4740 a.u.
CATACCCAACCTTGTCCAGTGGGTGAAGATATTTGT: 4280 a.u.
ACTAACGACTATTTGCACGTTGCAGTATTGTTCTGG: 13500 a.u.
CCATTGGTGTACCGTCACGTGCTAAGGTTCTGCTGT: 17700 a.u.
TCAAAACCAAGAATTGATGTGCAGGAAAATGAAGAT: 4140 a.u.
CTTCTGTAAATTTGAGACGTGGGTGGACGCGCCCCG: 5750 a.u.
CATGTTCATACCCTTCACGTTTGTGGAGCAAAGGTT: 10200 a.u.
TCTGATGTGTAAACTCATGTGGTGCACTGGTGTTGT: 6770 a.u.
TTGGTAGAGGCGGTTCCCGTGGTGATGCTCGCGGTG: 6620 a.u.
CGGGGTTAAGTTTAACACGTGTTTTGCTTGCAGCAG: 15100 a.u.
CATACCCAACCTTGCCACGTGTTTTAAGATATTTGT: 18900 a.u.
ACCCCGGAACACTGGCACGTATTTCATAAAAAGGAC: 8150 a.u.
CCGACCACTGGGATCCACATGTCCTTGTCTCTCAGG: 10100 a.u.
AGGGTTACACTCCATCACGTGGGACACCATAATTTA: 16900 a.u.
AAAAGCATTCTTTGTCACGTGCCAGGGTTTGCTCCT: 20200 a.u.

Study 2 — technique: RNA Bind-n-Seq; molecule type: RNA; medium: in vitro; tested at: 365 nM; reference: no-protein control; reading: higher = stronger binding; quantity: RBNS enrichment (R)
Target: RNA binding protein fox-1 homolog 2, RRM domain, GST-SBP tag (RBFOX2, Homo sapiens, UniProt O43251-10, residues 100-194)
Notes: natural RNA segment, single round, ends assumed
Shared flanks, not repeated: GGGAGUUCUACAGUCCGACGAUC … UGGAAUUCUCGGGUGCCAA
Construct (chain): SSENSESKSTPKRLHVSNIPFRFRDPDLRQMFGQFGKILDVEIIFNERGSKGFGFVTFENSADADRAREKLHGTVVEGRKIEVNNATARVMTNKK
CAAAGGCCCUGACGGGCCCUGUCUUCAGGUUCUAGAAACUACCAGAAGAAGCUUCUUCCAUCUUAUCUACCUACUGCAGCUGCUGCUUUGCGGGGGGGCCCUACUGUACU: 0.346
ACCCUCAGAAAGACAUCCAAUUUUUUUAAAUCCCUGUAGCUCCAAGCCUGGUCUCAUUUGCUUCCCUGCCAGGCUCAUCGUGUGUAUACCACAUUUGUGCCCCACUGACC: 1.06
AAUCAUGUAUCUCUUAGAGAAGAAAAUUCUAUGCCCUACCACAUCACAAGAUCUCCUCCUCAGUGUCUGUCUGUCUGUCUGUCUGUCUGCCUGGCAUCUGAUGGGUCAGG: 0.434
UACUUGUUUCCCACCCCAGGUUCCUCCAGGCCAAGUCAUGGGGUGAUGAGGAGUUGGGGCCCUGUCUGUCCUAGGCCUGGAGAGUGCCUGUCUGGGAAAAGGUCACUGGA: 0.632
UAUUUUGUUCCCCAUGUUUAUGAAAGUCCUGCACAGUUUCAAAGGCAUGGUAAAUAAUAUAUCAAUGUUUAUGUAGUCUGUUACAGAAACAGCUAUAGAUAACAUUAUCC: 0.604
AUGUCUACUUGUAUUGAUCCUUUGGGUCUCCUGGCCCAUUGCUAGGCACUGUUUGUGUGUUAUUAAUGUGUAAUUGGGUGAGAACUGUGUCCCUGAGCAGGAGGGGCUGU: 1.23
GUUCAGCACGUCCCCCACCCUCUUCCUGCCGCCUGCAAACCUCACGUGCAGCUUUUCUAUAUGCACGUGUUUUAUUAAUCUGAAUAUUCUCCUUCUGUCUCGGUUUGUGU: 1.43
CACUAUUUAUUGACAGGUUGGGCUGUGUGUGUGCGCAUGUGUGUAUACAUUUCCAGGCGUGCCUGUGUCCUGUAGCUUUUUAAAAGGAAACCCAGUCAUCCCACUAUGAA: 0.812

Study 3 — technique: protein binding microarray; molecule type: double-stranded DNA, one strand shown; medium: in vitro; tested at: not given; reference: not given; reading: higher = stronger binding; quantity: E-score
Target: Histone acetyltransferase KAT6A, winged helix 2, GST fusion (KAT6A, Homo sapiens, UniProt Q92794, residues 85-181)
Notes: 8-mer, flanks averaged, mean of 2 arrays, mostly near background
Residues (chain): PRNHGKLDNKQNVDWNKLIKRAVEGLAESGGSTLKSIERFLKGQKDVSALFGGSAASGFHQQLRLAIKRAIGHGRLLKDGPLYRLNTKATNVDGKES
CCTGATTC: -0.0493
ATAAGTTG: -0.0216
ATACAATG: -0.0692
ACAGTGAG: 0.0211
ATGTCTGA: -0.0299
GCCAGTCC: 0.0288
GAGATTGA: -0.105
TCAACGCA: 0.0849
ACACGTGC: -0.106
AGGGCGAA: -0.016
GGACAATA: -0.107
CAATGCAA: -0.016
ATCCGCCC: 0.181
ACCAGCGT: 0.105
ATTTCTGA: -0.0251
ACGGCGCA: -0.00266

Study 4 — technique: RNA Bind-n-Seq; molecule type: RNA; medium: in vitro; tested at: not given; reference: input RNA pool; reading: higher = stronger binding; quantity: bound/input enrichment
Target: RING finger protein unkempt homolog, zinc fingers 1-6, GST-SBP tag (UNK, Homo sapiens, UniProt Q9C0B0, residues 30-357)
Sequence of UniProt Q9C0B0 (30-357, looked up): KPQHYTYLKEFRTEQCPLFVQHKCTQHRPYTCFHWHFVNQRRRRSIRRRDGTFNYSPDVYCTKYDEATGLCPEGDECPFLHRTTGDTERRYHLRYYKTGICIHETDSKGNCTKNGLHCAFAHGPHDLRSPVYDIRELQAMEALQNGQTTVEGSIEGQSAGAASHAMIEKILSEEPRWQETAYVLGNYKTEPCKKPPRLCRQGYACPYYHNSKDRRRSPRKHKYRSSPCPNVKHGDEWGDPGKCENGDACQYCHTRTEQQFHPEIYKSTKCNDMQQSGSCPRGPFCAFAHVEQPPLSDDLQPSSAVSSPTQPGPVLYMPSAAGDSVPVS
Notes: RNA with constant flanks, human and mouse sites, ends assumed
Shared flanks, not repeated: GGGAGUUCUACAGUCCGACGAUC … CAACAGAGGAUUGAGCAUCA
AGCAGGAAGAAUGUGCUUGGUCACAUGCAGCAGGGUGGGAGCCCAACCCCAUUUGAUAGGAAUUUUGCCACUAAGAUGGGCGCCAAGGCUAUGAACUGGAUGUCUGGGAAAAUCAAAGAG: 0.296 ratio
CAUGCGUACCGGAAACUACAUAGAGCUCAAUGAAGAAAAUGAUUUCCAUUAUAACGGUACCGAUGUGAGCUUUGAAGGUGGCACUCUUGGCUCUGCAUGGCUCUCUUCCAAUCCAGUUCC: 0.134 ratio
UAUAGCACUGAAUAAAUGAUGCAAGUUGUCAAUGGAUGAGUGAUCAACUAAUAGCUCUGCUAGUAAUUGAUUUAUUUUUCUUCAAUAAAGUUGCAUAAACCAAUGAGUUAGCUGCCUGGA: 0.721 ratio
GAUGUAGUAGUCAACAUUUUUAUUAACAGUUUUGGAUCCAUUCAAGAAACAACAAUGGACUAUAGAGUUAACAUCUUCCUGAGACAAAAAUGGAAUGACCCCAGGCUGAAGCUCCCCAGU: 0.952 ratio
CUCAAUAAUACCUAUGAGUUCAUGAGCACAUUCUUCUUAGAAGUCAGCUCUGUCUUCCCAGAUUUUUAUCUUCAUCUUGGAGGAGAUGAGGUUGAUUUCACCUGCUGGAAGUCCAACCCA: 0.186 ratio
UUCCUUACCCGGCCUAAGGUCCCUGUCUUGCAGCUGGAUAGUGGCAACUACCUCUUCUCUGCUAGUGCAAUCUGCCGAUAUUUUUUUCUGUUAUGUGGCUGGGAACAAGAUGAUCUCACC: 0.508 ratio
AACCUCUGCAAGCUCAUGAAAGAAAUCUUAGAUAAGAAGGUUGAGAAGGUGACAAUCUCCAAUAGACUUGUGUCUUCACCUUGCUGCAUUGUGACCAGCACCUACGGCUGGACAGCCAAU: 0.278 ratio
UGCAGAAGACCCUCCGGCGGGCCAUUGGCAAGAGCCGCCCCUACUUUGAGCUCAAGGCCCAGUUCAGCCAAAUCCUGGAGGAGCACAAGGCCAAGGUGACAGAACUGGAGCAGCAGGUGG: 0.0981 ratio

Repeated from above (study 3):
GCCAGTCC: 0.0288
GAGATTGA: -0.105
TCAACGCA: 0.0849
ACACGTGC: -0.106
AGGGCGAA: -0.016
GGACAATA: -0.107
CAATGCAA: -0.016
